Measured values gathered from unrelated publications.
A part holds a random share of what one study measured. Substitutions count along the parent as printed.
UniProt Q8RYC8, sequence (whole entry, looked up): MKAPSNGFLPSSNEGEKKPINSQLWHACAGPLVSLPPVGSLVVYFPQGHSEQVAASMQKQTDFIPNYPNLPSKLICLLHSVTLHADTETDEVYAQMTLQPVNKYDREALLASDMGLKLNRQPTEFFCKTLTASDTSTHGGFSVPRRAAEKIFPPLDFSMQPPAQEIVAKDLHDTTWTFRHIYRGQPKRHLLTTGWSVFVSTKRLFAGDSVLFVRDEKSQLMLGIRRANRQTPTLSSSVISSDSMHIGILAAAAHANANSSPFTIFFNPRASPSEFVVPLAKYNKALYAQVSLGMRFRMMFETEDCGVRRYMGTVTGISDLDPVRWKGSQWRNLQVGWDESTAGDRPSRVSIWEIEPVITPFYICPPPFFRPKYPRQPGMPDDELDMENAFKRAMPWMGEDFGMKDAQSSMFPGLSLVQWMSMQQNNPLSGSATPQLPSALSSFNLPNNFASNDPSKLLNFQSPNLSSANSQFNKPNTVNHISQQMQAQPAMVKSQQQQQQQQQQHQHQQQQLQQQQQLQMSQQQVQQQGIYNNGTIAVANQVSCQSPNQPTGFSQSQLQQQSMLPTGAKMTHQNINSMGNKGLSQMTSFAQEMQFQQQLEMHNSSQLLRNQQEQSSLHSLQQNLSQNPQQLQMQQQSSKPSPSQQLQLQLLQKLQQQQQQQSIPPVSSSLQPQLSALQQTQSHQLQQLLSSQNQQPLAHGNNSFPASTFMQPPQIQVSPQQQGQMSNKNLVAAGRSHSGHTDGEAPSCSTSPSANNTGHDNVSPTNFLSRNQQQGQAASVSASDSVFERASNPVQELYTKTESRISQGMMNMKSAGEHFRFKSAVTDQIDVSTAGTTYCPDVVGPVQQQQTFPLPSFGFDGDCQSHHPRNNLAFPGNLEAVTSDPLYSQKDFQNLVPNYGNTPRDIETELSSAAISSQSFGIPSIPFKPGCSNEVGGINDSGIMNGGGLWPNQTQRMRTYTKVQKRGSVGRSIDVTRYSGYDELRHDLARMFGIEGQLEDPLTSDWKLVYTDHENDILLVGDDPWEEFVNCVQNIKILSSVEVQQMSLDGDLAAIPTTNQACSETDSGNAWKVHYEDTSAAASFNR
UniProt Q9C966, sequence (whole entry, looked up): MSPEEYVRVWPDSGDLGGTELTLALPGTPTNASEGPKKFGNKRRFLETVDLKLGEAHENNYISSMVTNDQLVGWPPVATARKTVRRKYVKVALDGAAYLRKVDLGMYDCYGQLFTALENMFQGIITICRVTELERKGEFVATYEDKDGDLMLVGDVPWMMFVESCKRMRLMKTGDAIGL
UniProt Q9ZPY6, sequence (whole entry, looked up): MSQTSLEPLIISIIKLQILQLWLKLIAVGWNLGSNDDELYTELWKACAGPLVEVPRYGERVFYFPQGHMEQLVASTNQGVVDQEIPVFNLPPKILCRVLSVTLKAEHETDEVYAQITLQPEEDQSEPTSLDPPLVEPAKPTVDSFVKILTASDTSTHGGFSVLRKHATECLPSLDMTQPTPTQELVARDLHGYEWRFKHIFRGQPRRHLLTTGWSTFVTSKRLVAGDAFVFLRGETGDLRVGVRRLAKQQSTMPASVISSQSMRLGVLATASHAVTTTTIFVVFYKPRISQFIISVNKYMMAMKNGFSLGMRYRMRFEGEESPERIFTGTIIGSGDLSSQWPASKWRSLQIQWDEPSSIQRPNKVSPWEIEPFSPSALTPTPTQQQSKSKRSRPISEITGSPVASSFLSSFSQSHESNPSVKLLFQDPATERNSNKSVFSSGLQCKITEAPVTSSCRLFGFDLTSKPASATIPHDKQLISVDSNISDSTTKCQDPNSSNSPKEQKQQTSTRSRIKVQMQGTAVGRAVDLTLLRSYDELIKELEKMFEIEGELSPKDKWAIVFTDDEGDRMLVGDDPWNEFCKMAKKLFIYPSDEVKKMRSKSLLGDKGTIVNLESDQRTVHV
UniProt Q93YR9, sequence (whole entry, looked up): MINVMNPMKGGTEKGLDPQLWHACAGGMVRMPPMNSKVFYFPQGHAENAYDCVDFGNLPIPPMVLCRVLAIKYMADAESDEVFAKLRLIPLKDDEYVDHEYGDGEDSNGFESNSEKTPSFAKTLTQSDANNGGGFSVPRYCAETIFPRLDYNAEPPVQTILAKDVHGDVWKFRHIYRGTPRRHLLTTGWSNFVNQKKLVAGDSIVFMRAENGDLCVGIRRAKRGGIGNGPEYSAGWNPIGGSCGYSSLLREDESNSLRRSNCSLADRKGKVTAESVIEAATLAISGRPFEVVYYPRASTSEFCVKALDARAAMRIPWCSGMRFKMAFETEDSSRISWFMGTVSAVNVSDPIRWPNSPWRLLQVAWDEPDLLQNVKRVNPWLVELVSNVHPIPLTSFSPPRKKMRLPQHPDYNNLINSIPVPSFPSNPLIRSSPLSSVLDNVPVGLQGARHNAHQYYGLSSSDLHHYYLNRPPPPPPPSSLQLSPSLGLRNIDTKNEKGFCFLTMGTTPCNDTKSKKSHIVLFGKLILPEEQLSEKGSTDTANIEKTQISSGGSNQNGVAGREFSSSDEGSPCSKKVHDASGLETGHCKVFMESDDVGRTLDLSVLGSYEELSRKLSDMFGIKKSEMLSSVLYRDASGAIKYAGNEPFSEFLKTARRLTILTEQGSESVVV
UniProt Q9SKN5, sequence (whole entry, looked up): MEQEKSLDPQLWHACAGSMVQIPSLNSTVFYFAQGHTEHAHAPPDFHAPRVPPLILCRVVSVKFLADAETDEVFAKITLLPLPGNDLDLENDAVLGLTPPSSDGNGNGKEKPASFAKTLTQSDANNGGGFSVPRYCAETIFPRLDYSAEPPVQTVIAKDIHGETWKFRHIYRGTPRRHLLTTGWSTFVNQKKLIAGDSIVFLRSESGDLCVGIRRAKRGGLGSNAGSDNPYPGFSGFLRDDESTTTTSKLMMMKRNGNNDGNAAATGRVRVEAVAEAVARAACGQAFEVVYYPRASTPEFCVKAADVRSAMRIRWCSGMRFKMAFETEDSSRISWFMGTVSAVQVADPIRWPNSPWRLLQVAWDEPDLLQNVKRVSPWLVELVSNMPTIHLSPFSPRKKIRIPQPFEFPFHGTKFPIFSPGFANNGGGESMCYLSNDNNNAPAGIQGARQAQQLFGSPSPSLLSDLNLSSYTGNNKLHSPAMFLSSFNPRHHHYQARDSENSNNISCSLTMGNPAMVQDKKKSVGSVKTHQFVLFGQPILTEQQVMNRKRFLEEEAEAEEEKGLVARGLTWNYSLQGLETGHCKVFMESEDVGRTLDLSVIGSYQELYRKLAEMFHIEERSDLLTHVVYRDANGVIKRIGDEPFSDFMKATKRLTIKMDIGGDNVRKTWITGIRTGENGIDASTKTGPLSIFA

Set 1
Target: ABI1, truncated, D143A, DHFR fusion (Arabidopsis thaliana)
Method: DHFR PCA, deep sequencing
Medium: yeast
Notes: methotrexate growth selection, single substitutions
With: (+)-ABA 2500 µM
Reference: wild-type fitted maximum
Direction: higher = stronger binding
Quantity: relative binding score
Starting sequence: PYL1, truncated, DHFR fusion (Arabidopsis thaliana); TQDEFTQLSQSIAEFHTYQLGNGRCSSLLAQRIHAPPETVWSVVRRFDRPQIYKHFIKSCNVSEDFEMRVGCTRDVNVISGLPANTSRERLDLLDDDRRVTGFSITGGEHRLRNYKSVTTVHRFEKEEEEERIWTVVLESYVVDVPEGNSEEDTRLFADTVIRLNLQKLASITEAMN; partner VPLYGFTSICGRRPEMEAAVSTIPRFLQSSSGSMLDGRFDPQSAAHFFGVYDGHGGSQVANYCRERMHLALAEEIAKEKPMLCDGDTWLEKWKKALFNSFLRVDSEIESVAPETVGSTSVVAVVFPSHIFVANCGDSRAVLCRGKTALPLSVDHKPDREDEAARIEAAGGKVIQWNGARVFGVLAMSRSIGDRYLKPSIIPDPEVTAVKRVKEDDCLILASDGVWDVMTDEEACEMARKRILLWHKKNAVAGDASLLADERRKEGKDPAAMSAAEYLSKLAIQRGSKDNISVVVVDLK
P37T: 85.7%
H110F: 21.6%
T73Y: 96.5%
S63V: 97.4%
H34N: 100%
Q2R: 94.8%
D97G: 98.6%
H55C: 98.8%
I57M: 88%
G71T: 77.7%
V76T: 88.9%
S63C: 97.2%
E131W: 88.9%
P146K: 45.2%
E129Q: 99.9%
T73Q: 102%
H16F: 44.7%

Set 2
Target: CREBRF, bZIP domain (human)
Method: DHFR protein complementation
Medium: yeast
Notes: single substitutions, most at no-binding floor
Reference: wild-type JUN-FOS pair
Direction: higher = stronger binding
Quantity: binding fitness
Starting sequence: JUN, bZIP domain (human); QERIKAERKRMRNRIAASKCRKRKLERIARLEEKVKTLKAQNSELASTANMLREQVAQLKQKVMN; partner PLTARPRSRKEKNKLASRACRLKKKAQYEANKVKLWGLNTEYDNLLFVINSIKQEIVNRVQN
L45A: -1.5 natural log
A46T: -1.46 natural log
L52I: -1.5 natural log
Q58P: -1.59 natural log
I28E: -1.49 natural log
S43V: -1.42 natural log
E44T: -1.46 natural log
E54I: -1.43 natural log
L52P: -1.52 natural log
L52W: -1.53 natural log
Q41G: -1.47 natural log
Q41S: -1.43 natural log
E33S: -1.47 natural log
T48E: -1.52 natural log
S47F: -1.32 natural log
V35W: -1.41 natural log
Q55L: -1.34 natural log
L45W: -1.56 natural log
L45F: -1.54 natural log
E54D: -1.53 natural log

Set 3
Target: RNA binding protein fox-1 homolog 2, RRM domain, GST-SBP tag (RBFOX2, Homo sapiens, UniProt O43251-10, residues 100-194)
Method: RNA Bind-n-Seq
Form: RNA
Medium: in vitro
Concentration: 365 nM
Notes: natural RNA segment, single round, ends assumed
Reference: no-protein control
Direction: higher = stronger binding
Quantity: RBNS enrichment (R)
Shared flanks, not repeated: GGGAGUUCUACAGUCCGACGAUC … UGGAAUUCUCGGGUGCCAA
Target sequence (chain): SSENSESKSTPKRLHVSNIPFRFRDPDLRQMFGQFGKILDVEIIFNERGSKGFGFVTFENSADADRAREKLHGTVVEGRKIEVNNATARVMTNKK
UGCGACUUCUCAGGCAGGUGAGAGGGGUAGUCCUUACACUGUCUAGCAUAAACGCCUUCCGGAAGGACCUGCAGCUCCAGAGACCACCUCCUGAGCACCAAGACCUCUUC: 0.243
CGCGGUCACUCCCUCUCCUAGUGAGAGGCAGAUGGCUGGCUCUGAAGGGAGGCAGGCACCGUGGGAUUUGGGCUUGCUCUGCUUGGUCCCCAUGUGAUGCCCUGUGCUGU: 0.354
UUUCCUCCCCACCCCACUCCCCAAAUACAGAGGUCUGCUUUGAAGCGGAGACCAUUUCCAGGCCUUAUUGAGACCAGACCCCAAGUCCCCCACCCCCAUCCUGCUCCAGC: 0.47
AGUGGAUAAAACUUUAAGUCCAAUAACUUGGGGGUCAAAUGCUAAUGUUUUAUUCAAUGUAAAGGAAGACCAAACCAUGUACCUUAUGAAGACCUUUGUUUUAAGACUUC: 0.396
CAAGUUUGAGGACCACCUUGGUGUAUAUAAGCAUGAUCUUUGUUCACACAUAAAAGAGAGAGGGAGUAUGUUUGUGUGUUUCAUGUGCAUACAUAUAUACACACUCCUAA: 3.22
AAGACUUUGCAGCAUUUUAGCCAGGCAGUAUUUACUCAUUAUUAGGAAAAUCAAGAUGUGGCUGAAGAUCAGAGGCUCAGUUAGCAACCUGUGUUGUAGCAGUGAUGUCA: 0.552
GUUUCUUAUGUAUCACACAUCCCCCAAAUAAGUGAUUUUUUCCCAGUGCUUUGUACUGUCAACUGCAUUAUCUUUAAUUAUUUAAAGGUAGAAUUAUUUAAUUUUGUGAU: 1.16
AUUCUAACAUUUACACUUUUGUUAUAAGCUAUUUAAAACCAGUAAGGAGACUUGAUAUUCAGAGAAUCAACAUGUUUUUUAAUGACUAACUGUAAAAGGCCCCUACACGU: 0.307
CUCCGCGGCGUGGCUCCUGCUGCCAUCAGCUGCCUUCUCUGCUGAAGUCCAACUCAAGUCGGAGAGAGAGUGGAGCCUCUGCACUUGGGGAGUAGGUCAGUGUCAACUAA: 0.374
UGAGCAGAGAUGUACUGCAAAGUCGCCAGUCACUGCUGCAAGGUGGCCUCUGCCUGGGGCCUCCAGAAGCUGCUCCUUUACCCUCUUGGUCCCAUGGCUGAAGCUGGAGC: 0.251
CAGAAGGAGGCCCUGGCUGCUCCAGCUUGGGUGGAGCCUACUGAAAUGUGGAAACUGUGUAUCUUAUAGAGCCUCCUCUCGUCCUACUCAUCCCUCAGCAGAAAAAUGUG: 0.97
GAGCCUCGGCCUGGCUGGCCAGGACACACUGAAAAGCAGCCUUUUUCACCAUGGCAAACCUAAAUGCAGUCAGUCACAAACCAGCCUGGGGCCUUCCUGGCUUUGGGAGU: 0.378

Set 4
Target: Sal-like protein 4, full length isoform A (SALL4, Homo sapiens, UniProt Q9UJQ4, residues 1-1053)
UniProt Q9UJQ4, sequence (whole entry, looked up): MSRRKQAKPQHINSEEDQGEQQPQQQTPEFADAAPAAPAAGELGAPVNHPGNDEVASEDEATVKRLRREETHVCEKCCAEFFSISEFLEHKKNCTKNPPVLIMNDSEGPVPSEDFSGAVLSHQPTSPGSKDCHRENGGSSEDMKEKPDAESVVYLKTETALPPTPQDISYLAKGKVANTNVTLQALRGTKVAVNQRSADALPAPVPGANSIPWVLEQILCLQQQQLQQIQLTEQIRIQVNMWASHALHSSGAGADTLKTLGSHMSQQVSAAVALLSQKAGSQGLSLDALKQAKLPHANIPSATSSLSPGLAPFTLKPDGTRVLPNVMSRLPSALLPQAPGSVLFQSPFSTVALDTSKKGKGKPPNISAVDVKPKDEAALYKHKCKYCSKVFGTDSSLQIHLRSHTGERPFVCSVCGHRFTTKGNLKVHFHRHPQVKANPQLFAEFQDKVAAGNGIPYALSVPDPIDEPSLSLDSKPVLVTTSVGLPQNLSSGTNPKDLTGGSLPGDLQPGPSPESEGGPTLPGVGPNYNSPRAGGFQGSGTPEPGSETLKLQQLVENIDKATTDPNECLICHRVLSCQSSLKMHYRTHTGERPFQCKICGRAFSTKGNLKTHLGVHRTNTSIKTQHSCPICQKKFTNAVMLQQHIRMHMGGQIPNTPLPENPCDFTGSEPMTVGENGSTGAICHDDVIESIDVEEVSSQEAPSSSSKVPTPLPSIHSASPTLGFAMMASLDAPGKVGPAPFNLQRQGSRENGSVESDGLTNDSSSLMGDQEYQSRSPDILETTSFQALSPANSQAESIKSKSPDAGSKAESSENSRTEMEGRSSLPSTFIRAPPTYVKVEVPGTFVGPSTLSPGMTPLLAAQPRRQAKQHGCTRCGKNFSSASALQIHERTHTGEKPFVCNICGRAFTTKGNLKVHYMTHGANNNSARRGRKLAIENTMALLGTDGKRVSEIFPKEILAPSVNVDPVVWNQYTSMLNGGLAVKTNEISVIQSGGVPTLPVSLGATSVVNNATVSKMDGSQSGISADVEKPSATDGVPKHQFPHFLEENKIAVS
Method: universal PBM
Form: double-stranded DNA, one strand shown
Medium: in vitro
Concentration: 600 nM
Notes: 8-mer, flanks averaged, mean of replicates
Direction: higher = stronger binding
Quantity: E-score
AACCGTGG: -0.196
TGATAGAA: 0.15
AGGTGTTA: 0.0656
GACAGCTA: 0.0547
CTTACTTA: 0.082
CGGCCTTC: -0.259
ATAGATCG: 0.0429
GGATGGAC: -0.144
CTAATTGA: 0.167
AGAAATCC: -0.0974
GTTGTGCA: -0.0911
AACCATTG: 0.0893
ACTCTTCG: -0.0826
ACGATATG: 0.25
AGATAAGG: 0.00191
CGTGCTTA: -0.0207

Set 5
Target: CCNB2, cyclin fold, Cln2 fusion (human)
Method: yeast growth competition, sequencing
Medium: yeast
Notes: weak parent motif
Reference: not given
Direction: higher = stronger binding
Quantity: normalised enrichment score
Starting sequence: LLGL2 docking peptide (human); KSLKKSLRQSFRR; partner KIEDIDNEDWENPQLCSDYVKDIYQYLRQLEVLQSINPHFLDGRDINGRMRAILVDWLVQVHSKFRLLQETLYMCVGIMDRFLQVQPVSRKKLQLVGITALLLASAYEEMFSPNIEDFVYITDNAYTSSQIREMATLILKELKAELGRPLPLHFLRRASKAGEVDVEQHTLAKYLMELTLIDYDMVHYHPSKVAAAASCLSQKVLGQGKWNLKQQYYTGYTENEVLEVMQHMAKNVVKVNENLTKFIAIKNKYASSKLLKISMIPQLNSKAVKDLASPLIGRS
K1A: 0.331
S10A: 0.367
S2A: 0.914
Q9A: 1.13
F11A: 0.496
R8A: 0.507
R12A: 0.784

Set 6
Sequence: B1 (IAA1)
Method: two-hybrid
Reference: out of 4 tests
Direction: higher = firmer interaction
Quantity: positive tests
B1: IAA1 (Arabidopsis thaliana, UniProt P49677); chain MEVTNGLNLKDTELRLGLPGAQEEQQLELSCVRSNNKRKNNDSTEESAPPPAKTQIVGWPPVRSNRKNNNNKNVSYVKVSMDGAPYLRKIDLKMYKNYPELLKALENMFKFTVGEYSEREGYKGSGFVPTYEDKDGDWMLVGDVPWDMFSSSCQKLRIMKGSEAPTAL
ARF11 500-622 (Arabidopsis thaliana, UniProt Q9ZPY6): 1
ARF19 948-1086 (Arabidopsis thaliana, UniProt Q8RYC8): 4
IAA15 (Arabidopsis thaliana, UniProt Q9C966): 2
ARF10 575-693 (Arabidopsis thaliana, UniProt Q9SKN5): 1
ARF16 570-670 (Arabidopsis thaliana, UniProt Q93YR9): 0

For quick reference, copied from above (set 2):
E33S: -1.47 natural log
T48E: -1.52 natural log
S47F: -1.32 natural log
V35W: -1.41 natural log
